Experimental data from different studies.
Protocols differ between the studies behind these lines. Several values in a cell are separate wells, animals, samples, runs or records. ± marks the error that the study gave.

| Compound | tested on | test | test system | conditions | how to read | quantity | result |
| --- | --- | --- | --- | --- | --- | --- | --- |
| O=c1c(-c2cnn(-c3ccc(Cl)cc3)c2)c(C(F)(F)F)oc2c(O)c(O)ccc12 | – | – | mouse | intraperitoneal, 100 mg/kg, 24 h, DMSO vehicle | – | trough concentration | 90 nM |
| CN1Cc2cc(Cl)ccc2-n2c(nnc2C2CCN(c3cccc([18F])n3)CC2)C1 | – | – | C57BL/6 mouse male, stomach | intravenous, dose not given, 5 min, together with: blocking agent 10 mg/kg | – | tissue uptake | 10.3 ± 3.12 %ID/g |
| Cc1nc2cccc(OCC(C)(C)C(=O)NC(C)C)c2c(N)c1C(=O)[O-].[Na+] | Salmonella typhimurium | reverse mutation, plate incorporation | TA98 | 0.051 mg/plate, without S9 | – | revertant colonies | 25 ± 5 colonies/plate |
| CC[C@H](C)[C@@H]1NC(=O)[C@H](Cc2ccc(O)cc2)NC(=O)CCCSC[C@@H](C(=O)N(CC(=O)N[C@@H](CC(C)C)C(=O)NCC(N)=O)Cc2ccc(F)cc2)NC(=O)[C@H](CC(N)=O)NC(=O)[C@H](CCC(N)=O)NC1=O | – | – | human | intranasal, 100 µg single dose | – | deaths | 0% |
| CC[C@H](C)[C@H](NC(=O)[C@H](CCCCN)NC(=O)CNC(=O)[C@H](CC(C)C)NC(=O)[C@H](Cc1ccccc1)NC(=O)[C@H](CCCCN)NC(=O)[C@H](CO)NC(=O)[C@H](Cc1ccccc1)NC(=O)[C@H](Cc1c[nH]c2ccccc12)NC(=O)[C@H](CCC(N)=O)NC(=O)[C@@H](NC(=O)[C@H](Cc1ccccc1)NC(=O)CCCCCNC(=O)CN1CCN(CC(=O)O)CCN(CC(=O)O)CCN(CC(=O)O)CC1)C(C)C)C(=O)N[C@@H](CCC(=O)O)C(=O)N1CCC[C@H]1C(=O)N[C@@H](CC(=O)O)C(=O)N[C@H](C(=O)N[C@@H](CO)C(=O)N[C@@H](CCC(N)=O)C(=O)N[C@H](C(=O)N[C@@H](CCC(N)=O)C(=O)N[C@@H](CC(=O)O)C(=O)N1CCC[C@H]1C(=O)N[C@@H](CC(N)=O)C(=O)N[C@@H](CC(=O)O)C(=O)N[C@@H](CCC(N)=O)C(=O)N[C@@H](Cc1ccc(O)cc1)C(=O)N[C@@H](CCC(=O)O)C(=O)N1CCC[C@H]1C(=O)N[C@@H](Cc1ccccc1)C(=O)O)C(C)C)C(C)C [copper-64 labelled] | – | – | C57BL/6 mice, liver | together with: LPS 0.1 mg/kg intratracheal | – | tissue uptake | 8.65 ± 0.7 %ID/g |
| CC(=O)NCCCC[C@@H]1NC(=O)[C@H](Cc2c[nH]c3c(C)cccc23)NC(=O)[C@H]([C@@H](C)O)NC(=O)[C@H](CC(N)=O)NC(=O)[C@@H](NC(C)=O)C(C)(C)SSC(C)(C)[C@@H](C(=O)N[C@@H](Cc2ccc(OCCN)cc2)C(=O)N[C@@H](Cc2ccc3ccccc3c2)C(=O)NC2(C(=O)N[C@@H](CCC(=O)O)C(=O)N[C@@H](CC(N)=O)C(=O)N[C@@H](Cc3cccnc3)C(=O)N(C)CC(N)=O)CCOCC2)NC1=O | – | equilibrium dialysis | albumin plus glycoprotein | 1 µM, albumin 4%, glycoprotein 0.07% | – | protein binding | 37.1 ± 3.7% |
| C[C@H](O)[C@@H](NC(=O)[C@H]1CCCN1C(=O)[C@@H](CCCCN)NC(=O)[C@@H](CO)NC(=O)[C@@H](Cc1ccc(O)cc1)NC(=O)[C@@H](CC(N)=O)NC(=O)CCOCCOCCOCCNC(=O)CN1CCN(CC(=O)O)CCN(CC(=O)O)CCN(CC(=O)O)CC1)C(=O)N[C@H](CC(=O)O)C(=O)N[C@H](CCCNC(=N)N)C(=O)N[C@H](CCC(N)=O)C(=O)N[C@H](Cc1ccc(O)cc1)C(=O)N[C@H](Cc1c[nH]cn1)C(=O)N[C@H](Cc1ccccc1)C(N)=O [gallium-68 labelled] | – | – | BALB/c nude mice U-87 MG tumour, stomach | intravenous, 1.85 MBq, 0.08333 h, radiolabelled | – | tissue uptake | 1.54 ± 0.1 %ID/g |
| CSCC[C@H](NC(=O)[C@@H](NC(=O)[C@H](CC(C)C)NC(=O)[C@@H](NC(=O)[C@H](Cc1c[nH]cn1)NC(=O)CCCCCNC(=O)[C@H](CCCNC(=N)N)NC(=O)[C@H](CCCNC(=N)N)NC(=O)[C@H](CCCNC(=N)N)NC(=O)[C@H](CCC(N)=O)NC(=O)[C@H](CCCNC(=N)N)NC(=O)[C@H](CCCNC(=N)N)NC(=O)[C@H](CCCCN)NC(=O)[C@H](CCCCN)NC(=O)[C@H](CCCNC(=N)N)NC(=O)CNC(=O)[C@@H](N)Cc1ccc(O)cc1)C(C)C)C(C)C)C(=O)N[C@@H](CS)C(=O)N[C@@H](C)C(=O)N[C@H](C(N)=O)[C@@H](C)O | – | – | C57BL/6J mice | Alzet osmotic pump, 3 mg/kg, 8 weeks | – | bicarbonate | 25 mmol/L and 27 mmol/L |
| CCCC[C@H]1C(=O)N(C)[C@@H](CCCC)C(=O)N[C@@H](CCCNC(=O)CN2CCN(CC(=O)O)CCN(CC(=O)O)CCN(CC(=O)O)CC2)C(=O)N[C@H](C(=O)NCC(N)=O)CSCC(=O)N[C@@H](Cc2ccc(O)cc2)C(=O)N(C)[C@@H](C)C(=O)N[C@@H](CC(N)=O)C(=O)N2CCC[C@H]2C(=O)N[C@@H](Cc2c[nH]cn2)C(=O)N[C@@H](CC(C)C)C(=O)N(C)CC(=O)N[C@@H](Cc2c[nH]c3ccccc23)C(=O)N[C@@H](CO)C(=O)N[C@@H](Cc2c[nH]c3ccccc23)C(=O)N1C [gallium-68 labelled] | – | – | NOD/SCID mice, CHO-hPD-L1 xenograft, tumour over muscle | iv, dose not given, 30 min | baseline: tumour over muscle | tissue-to-tissue ratio | 8.61 ± 1.26 |
| CC(C)[C@H](NC(=O)[C@@H](NC(=O)[C@H](CCCNC(=N)N)NC(=O)[C@H](CCCNC(=N)N)NC(=O)[C@H](CCCNC(=N)N)NC(=O)[C@H](CCC(N)=O)NC(=O)[C@H](CCCNC(=N)N)NC(=O)[C@H](CCCNC(=N)N)NC(=O)[C@H](CCCCN)NC(=O)[C@H](CCCCN)NC(=O)[C@H](CCCNC(=N)N)NC(=O)CN)[C@@H](C)O)C(=O)N[C@H](C(=O)N[C@@H](CO)C(=O)N1CCC[C@H]1C(=O)O)[C@@H](C)O | – | – | ICR mouse, female, left kidney | intranasal, 20 mg/kg daily, 4 weeks | – | kidney weight | 0.209 ± 0.031 g |
| CC[C@H](C)[C@H](NC(=O)[C@H](CCCCN)NC(=O)CNC(=O)[C@@H](NC(=O)[C@H](Cc1c[nH]cn1)NC(=O)[C@H](Cc1c[nH]cn1)NC(=O)[C@@H](NC(=O)CNC(=O)[C@H](Cc1c[nH]cn1)NC(=O)[C@H](Cc1ccccc1)NC(=O)[C@H](CC(C)C)NC(=O)[C@H](CC(C)C)NC(=O)[C@H](CCCNC(=N)N)NC(=O)[C@H](Cc1ccccc1)NC(=O)[C@@H](N)Cc1ccccc1)C(C)C)C(C)C)C(=O)N[C@@H](CCCCN)C(=O)N1CCC[C@H]1C(=O)N[C@@H](CCCNC(=N)N)C(=O)N[C@@H](C)C(N)=O | – | – | zebrafish embryos 4 hpf, E3 medium | 1 h | – | acute toxic concentration | 25 µM |
| N=C(N)NCCC[C@@H](NC(=O)[C@H](N)Cc1c[nH]c2ccccc12)C(=O)N[C@H](CCCCN)C(=O)N[C@H](Cc1c[nH]c2ccccc12)C(=O)N[C@H](CCCNC(=N)N)C(=O)N[C@H](CCCCN)C(=O)N[C@H](Cc1c[nH]c2ccccc12)C(=O)N[C@H](CCCNC(=N)N)C(=O)N[C@H](CCCCN)C(=O)N[C@H](Cc1c[nH]c2ccccc12)C(=O)N[C@H](CCCNC(=N)N)C(=O)N[C@H](CCCCN)C(N)=O | – | – | mouse, urine | 20 mg/kg | – | NGAL level | 32.4 ng/mL |
| N#[11C]c1ccc(-c2csc(NN=C3CCCC3)n2)cc1 | – | – | C57BL/6 mice, male, liver | intravenous, 3 MBq, 60 min | – | radioactivity uptake | 5.98 ± 1.06 %ID/g |
| Cc1ccc(OCCN(C)C)cc1C(=O)N[C@H](C)c1cc(-c2cnn(CC(=O)N(C)C)c2)nc2ccccc12 | African green monkey cells | – | – | 125 µM | – | viability | 104% |
| CC(C)(CCCC/C=C/CCCCCC(C)(C)C(=O)O)C(=O)O | – | – | ICR mice, both sexes | oral, dose not given, 1 h | – | plasma concentration | 18900 ng/mL |
| Cc1ccc(N2CC(N(C)C)C2)cc1C(=O)N[C@H](C)c1cc(-c2cnn(C)c2)nc2ccccc12 | Vero E6 | – | – | 31.25 µM | – | viability | 90.7% and 92.9% and 91.1% |
| COc1cc2c(cc1O)C(CCc1ccc(Cl)cc1)N([11CH3])CC2 (centres unmarked) | – | PET | Sprague-Dawley rat, male, brain | intravenous, 20.5 MBq, no carrier added | – | peak brain radioactivity | 0.7 %ID/mL |
| CCCCCCCCCCCCCCCC(=O)N[C@@H](CCC(=O)NCCOCCOCCC(=O)NCCOCCOCCC(=O)NCCCC[C@H](NC(=O)[C@H](CC(=O)O)NC(=O)[C@H](CC(C)C)NC(=O)[C@H](Cc1ccc(O)cc1)NC(=O)[C@H](CCCCN)NC(=O)[C@H](CO)NC(=O)[C@H](Cc1ccc(O)cc1)NC(=O)[C@H](CC(=O)O)NC(=O)[C@H](CO)NC(=O)[C@@H](NC(=O)[C@H](Cc1ccccc1)NC(=O)[C@@H](NC(=O)CNC(=O)[C@H](CCC(N)=O)NC(=O)[C@@H](CO)NC(=O)[C@@H](N)Cc1c[nH]cn1)[C@@H](C)O)[C@@H](C)O)C(=O)N[C@@H](CCCNC(=N)N)C(=O)N[C@@H](CCCNC(=N)N)C(=O)N[C@@H](C)C(=O)N[C@@H](CCC(N)=O)C(=O)N[C@@H](CC(=O)O)C(=O)N[C@@H](Cc1ccccc1)C(=O)N[C@H](C(=O)N[C@@H](CCC(N)=O)C(=O)N[C@@H](Cc1c[nH]c2ccccc12)C(=O)N[C@@H](CC(C)C)C(=O)N[C@@H](CC(C)C)C(=O)N[C@@H](CC(N)=O)C(=O)N[C@H](C(=O)NCC(=O)NCC(=O)N1CCC[C@H]1C(=O)N[C@@H](CO)C(=O)N[C@@H](CO)C(=O)NCC(=O)N[C@@H](C)C(=O)N1CCC[C@H]1C(=O)N1CCC[C@H]1C(=O)N1CCC[C@H]1C(=O)N[C@@H](CO)C(N)=O)[C@@H](C)O)C(C)C)C(=O)O | – | – | rhesus monkey, both sexes, plasma | subcutaneous, 20 µg/kg, multiple doses, day 7 | – | AUC(0-inf) | 93.7 ± 29.2 ng·h/mL |
| O=C1NC2(CC2)COc2ncc(F)cc2[C@H]2COCCN2c2ccn3ncc1c3n2 | – | – | Sprague-Dawley rat, female, spleen | oral, 2.5 mg/kg/day, 4 weeks dosing, end of recovery | – | organ-to-brain weight ratio | 41.9 ± 11.3% |
| C/C(=N\OCCCN1CCCCC1)c1ccc(C(F)(F)F)cc1 | – | – | rhesus monkey | dose not given, after dosing | – | systolic blood pressure | 169 mmHg and 162 mmHg |

Excerpt of the above:
| Compound | tested on | test | test system | conditions | how to read | quantity | result |
| --- | --- | --- | --- | --- | --- | --- | --- |
| Cc1ccc(OCCN(C)C)cc1C(=O)N[C@H](C)c1cc(-c2cnn(CC(=O)N(C)C)c2)nc2ccccc12 | African green monkey cells | – | – | 125 µM | – | viability | 104% |
